{"data": "Measurements gathered from unrelated publications", "note": "Each numbered part is a random draw from the data of one study; scales do not carry over between parts."}
{"data": "Series 1", "target": "Phosphate system positive regulatory protein PHO4, full length, GST-tagged (PHO4, Saccharomyces cerevisiae, UniProt P07270, residues 1-312)", "method": "competition protein-binding microarray", "molecule type": "double-stranded DNA, one strand shown", "medium": "in vitro", "tested at": "2 µM", "notes": "whole 60-bp probe, lowest competitor level", "with": "Cbf1 competitor, 0.05 µM", "reading": "higher = stronger binding", "all sequences stand within": "… GTCTTGATTCGCTTGACGCTGCTG", "Target sequence (chain)": "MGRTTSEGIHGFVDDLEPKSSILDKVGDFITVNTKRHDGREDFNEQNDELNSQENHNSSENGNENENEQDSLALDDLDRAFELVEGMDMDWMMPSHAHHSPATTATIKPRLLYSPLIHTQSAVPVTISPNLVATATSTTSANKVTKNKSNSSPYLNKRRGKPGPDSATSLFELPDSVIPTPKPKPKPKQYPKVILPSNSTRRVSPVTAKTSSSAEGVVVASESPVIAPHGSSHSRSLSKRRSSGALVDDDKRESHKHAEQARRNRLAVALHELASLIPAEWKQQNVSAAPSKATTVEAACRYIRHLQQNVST"}
{"Strand": "TACGAACAATATCCACACGTGGCCGTTGTAAAGCTT", "fluorescence intensity [a.u.]": 18200}
{"Strand": "CGGGAGTGTTTTTTTTCCGTGCGGATTTTCTTAGCT", "fluorescence intensity [a.u.]": 4160}
{"Strand": "GTTCAATATACATCCTACGTGCAAAACGAACAATAG", "fluorescence intensity [a.u.]": 7060}
{"Strand": "ATTGCCTTTGGTGTACTCATGACAAGGGTATATTTT", "fluorescence intensity [a.u.]": 4260}
{"Strand": "TGAATGTAGGTCCATCACGGGCTGCATTTAGTACAA", "fluorescence intensity [a.u.]": 7200}
{"Strand": "CGTCCTAGCGATTGAGGAGTGGGTGCCATGAGGAAG", "fluorescence intensity [a.u.]": 6020}
{"Strand": "CCCTGCTGCCAGTCCCACGTGCAGACGCACCTGCAG", "fluorescence intensity [a.u.]": 16300}
{"Strand": "GATAGTAACTCGAGTCACGTGCTTTCTAACCATCAA", "fluorescence intensity [a.u.]": 14800}
{"Strand": "TGTCTCCACAGTACCAACGTGCGATATCTGCTTCTC", "fluorescence intensity [a.u.]": 12200}
{"Strand": "ATTTTCTCTGATTTTCTCGTGCGGACAATAAGTAAA", "fluorescence intensity [a.u.]": 7340}
{"Strand": "GTATTGGATAGCCATCACGTTGTCGAACATCCGGCT", "fluorescence intensity [a.u.]": 11100}
{"Strand": "CTTCTTGTCACCGCTCCCGTGAACGGCCCATGCTAC", "fluorescence intensity [a.u.]": 6150}
{"Strand": "CGTCTCGAGCATGAGCGTGTGCAACAGTTGCAACAA", "fluorescence intensity [a.u.]": 7590}
{"Strand": "TCTCGAAATTTGTCTTTCGTGATGGTTGCACAGTCT", "fluorescence intensity [a.u.]": 3780}
{"Strand": "CATACCCAACCTTGCGATGTGGGTGAAGATATTTGT", "fluorescence intensity [a.u.]": 4770}
{"Strand": "GTCTTGTCTCATTGCGGCGTGGGTGTCCCCACTTCA", "fluorescence intensity [a.u.]": 7230}
{"Strand": "CTTCTGTAAATTTGTCACAGTACTTGACGCGCCCCG", "fluorescence intensity [a.u.]": 3220}
{"Strand": "GAAAGCGTTCAGTCCCACGTTGAAAAAAATATATAA", "fluorescence intensity [a.u.]": 10800}
{"Strand": "CCGGTTGATAATACGCAGGTGACGTTTGATAATGTG", "fluorescence intensity [a.u.]": 6020}
{"data": "Series 2", "target": "Histone acetyltransferase KAT6A, winged helix 2, GST fusion (KAT6A, Homo sapiens, UniProt Q92794, residues 85-181)", "method": "protein binding microarray", "molecule type": "double-stranded DNA, one strand shown", "medium": "in vitro", "tested at": "not given", "notes": "8-mer, flanks averaged, mean of 2 arrays, mostly near background", "reference": "not given", "reading": "higher = stronger binding", "Construct (chain)": "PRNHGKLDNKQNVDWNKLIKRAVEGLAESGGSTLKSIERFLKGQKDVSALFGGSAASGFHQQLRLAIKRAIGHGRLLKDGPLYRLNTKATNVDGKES"}
{"Strand": "GTGGATTA", "E-score": -0.0983}
{"Strand": "CAGGGAAG", "E-score": -0.147}
{"Strand": "GGAAGACA", "E-score": 0.169}
{"Strand": "CCCGTGCG", "E-score": 0.183}
{"Strand": "CATACGAG", "E-score": -0.00768}
{"Strand": "GATCGAAA", "E-score": 0.164}
{"Strand": "AGATGATG", "E-score": -0.0738}
{"Strand": "AGCGCCGC", "E-score": 0.0375}
{"Strand": "GCCATGGC", "E-score": -0.118}
{"Strand": "CAGCTCAC", "E-score": 0.0615}
{"Strand": "GAGATCAC", "E-score": -0.0589}
{"Strand": "AGCCAGGA", "E-score": 0.00048}
{"Strand": "ATTTACGG", "E-score": 0.0468}
{"Strand": "TCTTCGCA", "E-score": -0.0161}
{"Strand": "CATTGCGC", "E-score": -0.00499}
{"Strand": "AGGACGAA", "E-score": 0.16}
{"Strand": "AGCGTTAC", "E-score": -0.184}
{"Strand": "ACATACCT", "E-score": -0.132}
{"Strand": "AGTAGCCG", "E-score": 0.101}
{"Strand": "CTGTAAAG", "E-score": -0.0557}
{"Strand": "TTATCCAA", "E-score": 0.0481}
{"Strand": "ATCTTACC", "E-score": -0.0923}
{"Strand": "CATGGGTA", "E-score": -0.2}
{"Strand": "AGGGAAGA", "E-score": 0.0148}
{"Strand": "AGGCAGAG", "E-score": 0.108}
{"data": "Series 3", "target": "RING finger protein unkempt homolog, zinc fingers 1-6, GST-SBP tag (UNK, Homo sapiens, UniProt Q9C0B0, residues 30-357)", "method": "RNA Bind-n-Seq", "molecule type": "RNA", "medium": "in vitro", "tested at": "not given", "notes": "RNA with constant flanks, human and mouse sites, ends assumed", "reference": "input RNA pool", "reading": "higher = stronger binding", "all sequences stand within": "GGGAGUUCUACAGUCCGACGAUC … CAACAGAGGAUUGAGCAUCA", "UniProt Q9C0B0, sequence (30-357, looked up)": "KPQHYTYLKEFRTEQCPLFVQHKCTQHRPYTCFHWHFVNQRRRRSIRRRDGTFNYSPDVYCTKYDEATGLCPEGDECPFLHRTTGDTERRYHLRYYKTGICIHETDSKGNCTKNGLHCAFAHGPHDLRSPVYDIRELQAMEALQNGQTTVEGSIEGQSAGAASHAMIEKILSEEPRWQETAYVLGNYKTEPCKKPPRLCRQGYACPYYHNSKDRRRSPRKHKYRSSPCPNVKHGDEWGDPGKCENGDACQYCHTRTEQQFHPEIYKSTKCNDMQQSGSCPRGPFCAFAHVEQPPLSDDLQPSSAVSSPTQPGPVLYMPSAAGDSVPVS"}
{"Strand": "GACAAGUAUUUCGGCAGUGUCUGUGAACUAGAUAUCAUCUUUAAUUUUGAGAAGGCUUAUUUUAUUUUGGAUGAGUUUCUUUUGGGAGGGGAAGUUCAGGAAACAUCCAAGAAAAAUGUC", "bound/input enrichment [ratio]": 0.782}
{"Strand": "UAUAAAGCACUUGAAUCGAUUGAAUAUGUUCAGACAUUCAAAGGAUUGAAGACUAAAUAUGAGCAAGAAAAAGACAGACAAAAUCAGAAACUGAACAGUGUACCAUCUAUAUUGCGUAGU", "bound/input enrichment [ratio]": 0.281}
{"Strand": "CAUUGACCUGUCAUGCCUCGCCUGGAGGCAGCAGCAUUGGGGAUCCCCUCCAUGGGGUUCAUAGAAAUAAGUGCAAUUUUUUUACACCCCUGAAACAAUUUGAAGGGAAGCAGCAUUACU", "bound/input enrichment [ratio]": 1.07}
{"Strand": "UAUGCUACAAAAAUUUCUCGUUUUUCAAAUGUCUAUCAUCUCUCAAUUCAUAUUUCAAAAAACUUCGGAGCAGAUACGACAAAGGUCUUUUAUAUUGGCCUGAGAGGAGAGUGGACUGAG", "bound/input enrichment [ratio]": 0.318}
{"Strand": "GGACUGCAGAAUGGCUCAGACUUGCAGUUCAUCGAAAUGCAGAGAGAUGCCAAUAGACAAAUUAGCGAAUACAAAUUUAAGCUUUCAAAAGCAGAACAGGAUAUAACUACCUUGGAGCAA", "bound/input enrichment [ratio]": 22.3}
{"Strand": "CUGCAUUAUUUGACCAGAGUUGAAGUGACAGAAUUUGAAGACAUUAAAUCAGGUUACAGAAUAGAUUUUUAUUUUGAUGAAAAUCCUUACUUUGAAAAUAAAGUUCUCUCCAAAGAAUUU", "bound/input enrichment [ratio]": 14}
{"Strand": "AAGGUGGUUGAACAGGGUAUGUUUGUAAAGCACUGCAAAGUAGAAGUAUAUCUCACAGAAUUGAAGCUAUGUGAAAAUGGAAACAUGAAUAAUGUUGUAACUCGAAGAUUUAGCAAAGCU", "bound/input enrichment [ratio]": 0.742}
{"Strand": "CGGGCAGUAGAGGAACUACACAAACUUUUGAAAGAAGCUGGUGAAGCCAACAAAGCAAUACAAGAUCAUCUUCUAGAGGUGGAGCAAUCCAAAGAUCAAAUGGAAAAAGAAAUGCUUGAG", "bound/input enrichment [ratio]": 0.157}
{"Strand": "CAGUACAAAGAUGACAAUUUUGGAGAAGGAAAUGAUGGCGGUAUAUUAGAUGACAAACUUAUAAGUAAUAAUGAUGGUGGCAUCUUUGACGAUCCCCCUGCCUUGUCUGAGGCAGGGGUC", "bound/input enrichment [ratio]": 5.11}
{"Strand": "ACCACAGCACUUUGCAGGCAAGCAGGCCAAGAAGCCCUGUCAGUCCUCAGGUUCAGCAAGUCCUAGUGUCCUGAAAGCCACAGAAGUAAACAAGAGCUGCCGGCAGCUGAACAAUCGCUC", "bound/input enrichment [ratio]": 0.188}
{"Strand": "GUAUGAAUUUAUUUUCCUUUGCUACUCAUUACCUGACCACUUUCACUCCUCUAGAUACCCUUAGGAAUAAACCUGAACUGUUCCAAAUCGAUUCUUCCAAGAGCUUUGGUGUUGGUACCU", "bound/input enrichment [ratio]": 2.23}
{"data": "Series 4", "target": "Prothrombin, mature alpha-thrombin (F2, Homo sapiens, UniProt P00734)", "method": "aptamer microarray, sandwich", "molecule type": "DNA with 2'F-ANA", "medium": "in vitro", "tested at": "200 nM", "notes": "whole 15-mer aptamer, many near background", "with": "Cy3 exosite-II aptamer, 400 nM", "reading": "higher = stronger binding", "strand": "GGTTGGTGTGGTTGG"}
{"Modification": "2'F-ANA at 1 2 3 4 6 7 8 9 10 12 14", "mean fluorescence intensity [a.u.]": 64.4}
{"Modification": "2'F-ANA at 1 5 6 9 10 15", "mean fluorescence intensity [a.u.]": 55.7}
{"Modification": "2'F-ANA at 1 4 5 8 9 10 11", "mean fluorescence intensity [a.u.]": 48.4}
{"Modification": "2'F-ANA at 1 2 3 4 7 8 9 13 14", "mean fluorescence intensity [a.u.]": 62.1}
{"Modification": "2'F-ANA at 2 4 6 7 9 10 12 15", "mean fluorescence intensity [a.u.]": 98.9}
{"Modification": "2'F-ANA at 1 2 3 7 9 10 12 15", "mean fluorescence intensity [a.u.]": 109}
{"Modification": "2'F-ANA at 3 4 5 7 14 15", "mean fluorescence intensity [a.u.]": 68.4}
{"Modification": "2'F-ANA at 2 3 7 10 12 13 15", "mean fluorescence intensity [a.u.]": 461}
{"Modification": "2'F-ANA at 1 2 5 6 7 9 11 14", "mean fluorescence intensity [a.u.]": 51.6}
{"Modification": "2'F-ANA at 3 4 5 6 7 8 9 10 12 13 15", "mean fluorescence intensity [a.u.]": 53.3}
{"Modification": "2'F-ANA at 6 8 10 11 12 15", "mean fluorescence intensity [a.u.]": 138}
{"Modification": "2'F-ANA at 2 3 4 6 7 9 10 11 15", "mean fluorescence intensity [a.u.]": 193}
{"Modification": "2'F-ANA at 5 6 14 15", "mean fluorescence intensity [a.u.]": 45.7}
{"Modification": "2'F-ANA at 5 7 8 10 12 15", "mean fluorescence intensity [a.u.]": 60.2}
{"Modification": "2'F-ANA at 1 4 5 6 8 9 11 12 14", "mean fluorescence intensity [a.u.]": 45.2}
{"Modification": "2'F-ANA at 1 2 6 8 9 10 12 15", "mean fluorescence intensity [a.u.]": 66.6}
{"Modification": "2'F-ANA at 3 9 10 13", "mean fluorescence intensity [a.u.]": 443}
{"Modification": "2'F-ANA at 1 7 9 10 11 12", "mean fluorescence intensity [a.u.]": 64.5}
{"Modification": "2'F-ANA at 1 2 7 8 9 11 12", "mean fluorescence intensity [a.u.]": 331}
{"Modification": "2'F-ANA at 1 3 4 6 8 9 10 12 15", "mean fluorescence intensity [a.u.]": 78.9}
{"note": "For quick reference, copied from above (series 2):"}
{"Strand": "AGTAGCCG", "E-score": 0.101}
{"Strand": "CATGGGTA", "E-score": -0.2}
{"Strand": "ACATACCT", "E-score": -0.132}
{"Strand": "ATCTTACC", "E-score": -0.0923}
{"Strand": "AGCGCCGC", "E-score": 0.0375}
